# Experimental data gathered from unrelated publications.
# Each numbered part is a random draw from the data of one study; scales do not carry over between parts. Changes are numbered by the printed parent chain.

# Study 1 — method: RNA Bind-n-Seq; molecule type: RNA; sample: in vitro; concentration: 200 nM; notes: whole 134-nt RNA, ends assumed; together with: 150 mM LiCl; baseline: input library; reading: higher = stronger binding; all molecules: 7-deaza-guanosine replaces G
# Target: Fragile X messenger ribonucleoprotein 1, C-terminal low-complexity region (Fmr1, Mus musculus, UniProt P35922)
# Shared flanks, not repeated: GGGAGUUCUACAGUCCGACGAUC … UGGAAUUCUCGGGUGUCAAGG
Sequence,log2 enrichment
GUCCUGUGCUACACAUCGUAUGUACCGAAUCGGGAAAAAGGGAAAAAGGGAAAAAGGGAAAGUAUUAUGUUACGCCGUUCGGAUCUGCAC,0.14
CAAGUCCUGUGCUACACAUCGUAUGUACCGAAUCGGGAAAGGGUGGGUUUUUGGGAAAGUAUUAUGUUACGCCGUUCGGAUCUGCACUUC,-1.1
GCAGGAAGUGAAAACAAAUGGAAAUGCUUCGGAUAGUGGCAGGGGUGGGGGUUGCUAAGGAAAGGGUGGGAUGGGAGUGGGUAAAGAGUU,1.7
GUCCUGUGCUACACAUCGUAUGUACCGAAUCGGAAAAAAAGGUUUUUGGAAAAAAAGGAAAGUAUUAUGUUACGCCGUUCGGAUCUGCAC,-1.79
GGUAGCAAGAGCUCCAGAGAGAAGUCGAGGAAGAGAGAGACGGGGUCAGAGAGAGCGCGCGGGCGUGCGAGCAGCGAAAGCGACAGGGGC,1.18
UCCUGUGCUACACAUCGUAUGUACCGAAUCGGGAAAAAGGGGAAAAAGGGGAAAAAGGGAAAGUAUUAUGUUACGCCGUUCGGAUCUGCA,-0.371
UCCUGUGCUACACAUCGUAUGUACCGAAUCGGGUUUUUUUGGGAAAGGGAAAAAAAGGGAAAGUAUUAUGUUACGCCGUUCGGAUCUGCA,-1.03
GCAGGAAGUAAAAACAAAUGGAAAUGCUUCGGAUAGUGGCAGGGGUGGGGGUUUCUAAGGAAAGGGUGGGAUGGGAGUGGGUAAAGAGUU,1.18
UGGCCCUGGUGGCAUGCGGGGAGGAAGAGGUGGCCUCAUGGAUCGUGGUGGUCCCGGUGGAAUGUUCAGAGGUGGCUGUGGUGGAGACAG,0.136
UCAAGUCCUGUGCUACACAUCGUAUGUACCGAAUCGGGAGGGUGGGUUUUUGGGAAAGUAUUAUGUUACGCCGUUCGGAUCUGCACUUCC,-1.44
UAACUUUAGAGGAGGAUCUGAUGGAUAUGGCAGUGGACGUGGAUUCGGGGAUGGCUAUAAUGGGUAUGGAGGAGGACCUGGAGGUGGCAA,-0.314

# Study 2 — method: protein-binding microarray; molecule type: double-stranded DNA, one strand shown; sample: in vitro; concentration: 250 nM; notes: 60-bp whole probe; together with: salmon DNA 0.4 mg/ml; baseline: random background probes; reading: higher = stronger binding; shared flanks, not repeated: GCCTAGCAC … GTCTTGATTCGCTTGACGCTGCTG
# Target: Interferon regulatory factor 5, full length, phosphomimetic (IRF5, Homo sapiens, UniProt Q13568-2, residues 1-514, K96S/S451D/S453D/S456D/S462D)
Sequence,log fluorescence
GACGGTATACTTTTCCTGACGTGCTAG,0.3 z-score
GACGGTTTCTGGTATCGGGACGTGCTA,3.19 z-score
AATATGTTCCCTATATAAGGGTGCTAG,0.306 z-score
TTAGATTTCGGGTATCCATTAGTGCTA,5.81 z-score
GACGGTTTCGGGACTGGAGACGTGCTA,4.74 z-score
TTAGGTTTCGGGTATCGATTAGTGCTA,9.77 z-score
AACGATCTCAGTATCGAGACGTGCTAG,1.91 z-score
GACGATTCCAGTTTCGAGAGGTGCTAG,5.49 z-score
GTGGGTTTGAGTCTTCTCCTGTGCTAG,-0.196 z-score
TTAGGTCTACTACTGCTTTAGTGCTAG,-0.3 z-score
TCATTTCCATCTCTCAAACTGTGCTAG,1.63 z-score
GTATTTGTCCCTATTTAAGAGTGCTAG,0.935 z-score
TTAGGGTCCGGTTTCGGTTAGTGCTAG,8.09 z-score
GATGGTTTCGGGACTGGGGACGTGCTA,5.93 z-score
GACGGTATCGGACTGGAGACGTGCTAG,0.925 z-score
TCCTGTGTCTTAAATAGGGCAGTGCTA,-0.089 z-score
TTAGGTATCGGGATCGGTTAGTGCTAG,2.73 z-score
TTAGATTTCAGACTTGATTAGTGCTAG,0.486 z-score
TCAGTTCTGAGTCTTCCACTGTGCTAG,-0.179 z-score
GACGGACTGGACTATCGGGAAGTGCTA,0.973 z-score

# Study 3 — target: CCNF, cyclin fold, Cln2 fusion (human); method: yeast growth competition, sequencing; sample: yeast; notes: weak parent motif; baseline: not given; reading: higher = stronger binding
# Starting sequence: PKN2 docking peptide (human); VSAVQKLDFSDTM
Variant,normalised enrichment score
S2H,1.01
K6Y,-0.829
F9N,0.802
S10R,0.145
M13H,0.49
V4H,-0.686
S2Y,1.95
S10Q,-0.0566
S2G,0.137
A3I,0.463
V4T,-0.499
T12L,1.61
T12M,0.842
M13D,0.951
L7A,-0.35
F9T,-0.232
S10Y,0.669
D8P,0.00584
M13N,0.652
V1R,1.16
F9Q,-0.0318
D11L,1.33
V1D,-0.0741
V1Y,1.71

# Study 4 — method: protein-binding microarray; molecule type: double-stranded DNA, one strand shown; sample: in vitro; concentration: not given; reading: higher = stronger binding
# Target: TATA-box-binding protein 1 (TBP1, Arabidopsis thaliana, UniProt P28147, residues 1-200, full length assumed)
# Notes: k-mer, scored over probes, only values ≥0.25
# Construct (chain): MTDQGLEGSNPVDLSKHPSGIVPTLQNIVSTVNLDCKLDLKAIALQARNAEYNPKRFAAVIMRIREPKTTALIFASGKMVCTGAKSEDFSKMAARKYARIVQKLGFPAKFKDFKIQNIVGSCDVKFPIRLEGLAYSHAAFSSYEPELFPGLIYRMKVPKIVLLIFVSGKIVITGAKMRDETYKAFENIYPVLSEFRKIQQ
Sequence,E-score
CTTTTTA,0.381
GTCATAA,0.26
TAAAATA,0.387
GACTTAA,0.26
ATATGTG,0.275
CTATTTA,0.407
CGTTATA,0.386
TAAAAAA,0.371
AAAATAC,0.288
ATAACAT,0.319
GTACATA,0.278
TATAACA,0.417
GTTCTTA,0.252
TACATAA,0.322
CTCTTTA,0.305
ATACTTA,0.372
TAATATA,0.469
ATTTAAC,0.379
TAAAAGA,0.355
AAAATTA,0.323
GTTTTTA,0.405
ATATGCG,0.304
ATTAAGG,0.295

# A few entries again (study 2):
Sequence,log fluorescence
GTATTTGTCCCTATTTAAGAGTGCTAG,0.935 z-score
TTAGGTCTACTACTGCTTTAGTGCTAG,-0.3 z-score
GTGGGTTTGAGTCTTCTCCTGTGCTAG,-0.196 z-score
TTAGATTTCAGACTTGATTAGTGCTAG,0.486 z-score
